Measured values collected from several papers.
Parts stem from different laboratories: compare values within a part only.

Set 1
Target: Histone acetyltransferase KAT6A, winged helix 1, GST fusion (KAT6A, Homo sapiens, UniProt Q92794, residues 1-85)
Method: protein binding microarray
Form: double-stranded DNA, one strand shown
Medium: in vitro
Concentration: not given
Setting: 8-mer, flanks averaged, mean of 2 arrays, mostly near background
Relative to: not given
Reading: higher = stronger binding
Target sequence (chain): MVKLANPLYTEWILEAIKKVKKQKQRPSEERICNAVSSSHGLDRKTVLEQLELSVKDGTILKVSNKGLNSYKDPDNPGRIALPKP
Oligonucleotide | E-score
CCATTCAG | -0.156
AGTAGAGG | -0.264
CGCCCTGA | 0.115
GTCAATGA | -0.096
ATAACTTG | -0.188
CCTCATAG | -0.308
GAAGCGTA | 0.152
ATAACGTG | -0.0155
GACCTCGA | -0.15
TCTACGAA | -0.287
CACTAAAG | -0.156
ACCAGCAC | -0.333
GTTATGAA | -0.172
GTATCAAC | -0.0247
ACAATTCC | -0.195
CATACATA | -0.18
GCCCCTCA | 0.0744
CAAGTGCC | 0.0569
GGATTTAA | 0.101
AGAGCATG | -0.111
AAATGTCT | -0.0914
CGCTAATA | 0.233
GTGATTAA | -0.114
ATGTCGTG | -0.143
CCAAAGCG | 0.373

Set 2
Target: Centromere-binding protein 1, full length, His-tagged (CBF1, Saccharomyces cerevisiae, UniProt P17106, residues 1-351)
UniProt P17106, sequence (whole entry, looked up): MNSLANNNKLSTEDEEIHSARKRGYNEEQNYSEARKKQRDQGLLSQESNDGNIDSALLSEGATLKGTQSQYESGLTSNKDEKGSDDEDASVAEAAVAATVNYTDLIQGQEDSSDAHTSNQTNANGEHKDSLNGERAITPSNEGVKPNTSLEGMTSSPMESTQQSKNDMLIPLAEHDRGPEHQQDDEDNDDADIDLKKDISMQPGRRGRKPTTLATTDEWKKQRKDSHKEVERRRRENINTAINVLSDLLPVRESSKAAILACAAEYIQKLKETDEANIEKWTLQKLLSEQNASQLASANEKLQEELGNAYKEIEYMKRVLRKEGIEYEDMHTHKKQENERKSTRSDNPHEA
Method: competition protein-binding microarray
Form: double-stranded DNA, one strand shown
Medium: in vitro
Concentration: 2 µM
Setting: whole 60-bp probe, lowest competitor level
With: Pho4 competitor, 0.05 µM
Reading: higher = stronger binding
Shared flanks, not repeated: … GTCTTGATTCGCTTGACGCTGCTG
Oligonucleotide | fluorescence intensity [a.u.]
TGGGCCTGAAAACTACACGTGGTGAGAGCCACAGTA | 677
TTGGTATTTGCCATGCAGGTGATAGTGTTATGGGTT | 125
CCAGTTGGTTAAGGCACCGTGCTAATATCGCGGGGA | 58.1
ATGAATGCGGACCATCACCTGCAACAGCAGCAGCAA | 79.1
AAAAAAGACGTAAAGCACGTGAAATAAGGAGATTAC | 1000
CTTCTGTAAATTTGAAGTGTGGGTGGACGCGCCCCG | 82.6
TTTGGCGCAAATTACCATGTGAGCGAGCGGGAATAA | 210
ATCTTTGAGTGTCGGCACGTGTTGGGTTACGAATTC | 1840
CGTCTCGAGCATGAGCGTGTGCAACAGTTGCAACAA | 89.9
GACAGTCTTAGTGTAGACATGACAGTTCTTGGTGGC | 68.7
AAATTACTAAGTTGTTGTGTGGGTGACGCCGTATGA | 78.1
AAATTACTAAGTTGCGTCGTGGGTGACGCCGTATGA | 65.5
GTCTTGTCTCATTGGCCCGTGGGTGTCCCCACTTCA | 86.9
GCTGTCTCCCTGCGACATGTGTACAGGTGCCATCAT | 97
CTTTCCCGATCTTTTCACGTGCAGTTAGCACATTTG | 855
CTAACGAAGGTTTGTTCTGTGGGTGACAAGCCAAGT | 72.2

Set 3
Target: RNA binding protein fox-1 homolog 2, RRM domain, GST-SBP tag (RBFOX2, Homo sapiens, UniProt O43251-10, residues 100-194)
Method: RNA Bind-n-Seq
Form: RNA
Medium: in vitro
Concentration: 365 nM
Setting: natural RNA segment, single round, ends assumed
Relative to: no-protein control
Reading: higher = stronger binding
Shared flanks, not repeated: GGGAGUUCUACAGUCCGACGAUC … UGGAAUUCUCGGGUGCCAA
Construct (chain): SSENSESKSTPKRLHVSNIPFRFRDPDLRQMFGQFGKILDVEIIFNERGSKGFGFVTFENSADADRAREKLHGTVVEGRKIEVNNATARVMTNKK
Oligonucleotide | RBNS enrichment (R)
AAACCCCCCUCUAUUAUGUGGGCCUAUGUACAAAUGUGGGUAUCCGCUGGUUUUGUUGUCUACGGGGAGCCCCAGGAUUCAGCUGUGGGUCUCUUUGAGUAUCUGGAAAU | 0.386
AUAUAUCAGCAGAGGCUUACCAAAGUCAUACCUGCUCUCCUCCACUAUUCUCUUCCAGAGUUUUCUUCAACUUCCAUCUUAUAAACCAAGGUAUUUAAAUUGUUCAUCUU | 0.674
UUUGAGUUAUGUGGGGCCAGCAGAAGUCUCAAUCCUUAUAGGCUUGAUGGUGAGAGCAGCGGGAGGUUUGAGGUGUACUCAUUGCAGUCCACUUUGGUCUGUAAGUAGGA | 0.771
GCUAAGCUUGGCCCUCACCAGCCAGCUUCACUGGAGCACCCAGAACACUUAGCUGGCCACCGCUUUAAUCUGGCCCCUUUGGGAAAGCGAAAAUCCCGAUCACAUUGGAC | 0.326
CAGUGUCUGGCUCCCUGAUAGGAGGGAGGUCCCAGGGUAGGAGCGGGCUGGCAGGCGCUGACUGCCUCAGCCCAUGUGCCCUGCCGGCCAGGGCGUGGCCUCCCCAAGGC | 0.323
CGGCACUUUCUUAAUUAUGAGUAUUGAAAGGUGCUGUUUUCAGUCUCCACAUGUCUGCUGACAAGUUAAAGAAUCUAGCAUAUCGCAUUUGGUUUUACUUGUUGAUUUUG | 0.777
GCAUGCAAAUCCAUAUUCUAGCACACCACACAGUGCCCACAGCUCUGCGGUGCUGAGCCAGCAGAAAUGAUUUCUUCAGCAGAUGUACCAGCUGUCAUCACUGACGUAUG | 4.43
GCACUUUGAGUAUCUGAAGAGUGAGAGCAUUCAUGUUUGACAGGUCCUGCUUCCCACUAUCCUUUUCCUGUUAUUAUUCAAAUUUUACACAAGGACUAAUCCUGGGUGUC | 0.782
AGCCUCGACUGCCACAGAGAAGCAUACUCUUGCAUCUGGGUUUGUUUACAGCGAUUCCGUGGACCGGGGGUAUUUUGAUCAGGGGUGGUUUUGGUCUGGGAGGGUUUUGU | 9.4
UUCUCCACCAUUUUCGUACGUCUCCUGUCCUGGUUUUUUCUUCUGCACUCUUGGAGAGAUUUAGAUGUUGGUCUCCUGGUUUGUGUUUCUCCGAGACAAUGCUCUUUUUU | 2.54
AUUUUUGUUUACAAUAUUAAAAUGUAUGUUAGCAAAUGGGUGGAUUUUCAAAUAAAAUGCAGCUUCCACAAAACAUGUUACGGUGUUCUGGUUUGAGGUGUGUUCUCCUU | 0.296
AUGGUAUAGCCUACUACACACCUGGGCUGUGUGGCAUGGCCUAUUCCUCUUAGGCUACAAACCUGUACAGCAUGUUACUGUACUGAACACAAUGGUAAGUAUUUGUGUAU | 2.72

Set 4
Target: Sal-like protein 4, full length isoform B (SALL4, Homo sapiens, UniProt Q9UJQ4-2, residues 1-616)
Method: universal PBM
Form: double-stranded DNA, one strand shown
Medium: in vitro
Concentration: not given
Setting: 8-mer, flanks averaged, mean of replicates
Reading: higher = stronger binding
Target sequence (chain): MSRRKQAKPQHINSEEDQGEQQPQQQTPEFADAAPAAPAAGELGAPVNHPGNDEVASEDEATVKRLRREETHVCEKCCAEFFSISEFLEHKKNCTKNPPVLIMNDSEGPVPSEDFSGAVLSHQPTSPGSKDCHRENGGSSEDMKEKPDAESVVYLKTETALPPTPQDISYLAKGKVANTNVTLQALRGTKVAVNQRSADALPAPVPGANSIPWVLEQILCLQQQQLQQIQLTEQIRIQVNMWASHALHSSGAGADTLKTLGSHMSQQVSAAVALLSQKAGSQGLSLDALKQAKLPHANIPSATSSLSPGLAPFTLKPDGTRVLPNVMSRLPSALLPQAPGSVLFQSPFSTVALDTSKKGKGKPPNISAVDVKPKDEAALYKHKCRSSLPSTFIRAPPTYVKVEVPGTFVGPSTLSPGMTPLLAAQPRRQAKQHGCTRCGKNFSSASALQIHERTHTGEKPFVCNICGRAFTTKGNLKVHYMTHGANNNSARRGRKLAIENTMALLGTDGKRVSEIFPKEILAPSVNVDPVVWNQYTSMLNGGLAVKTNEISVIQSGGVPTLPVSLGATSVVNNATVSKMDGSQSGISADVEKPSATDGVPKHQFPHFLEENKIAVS
Oligonucleotide | E-score
CCTGTGAG | -0.0814
TCACTCCA | -0.0614
AGTCCGTG | -0.268
CCTGATCG | -0.22
CCGGTAAC | -0.174
GATTGGAC | -0.0275
AGCTAACG | -0.0929
AGCAAGAA | 0.124
AATATTAG | 0.426
GATGAATC | 0.0828
CTGAATCA | 0.0474
AAGTGATC | 0.0966
AGATTGAA | 0.236
CGTGACAA | -0.0352
AGGCCGGG | -0.266
AACGCCTG | -0.0664
ATTGGCTA | 0.11
ATGCGTCC | -0.216
ATTCATCC | 0.157
AACAGTCT | 0.097
CCATGGTA | -0.0687
TGCTTCAA | 0.0598
GACGCATA | 0.0666

Set 5
Target: RING finger protein unkempt homolog, zinc fingers 1-6, GST-SBP tag (UNK, Homo sapiens, UniProt Q9C0B0, residues 30-357)
Method: RNA Bind-n-Seq
Form: RNA
Medium: in vitro
Concentration: not given
Setting: RNA with constant flanks, human-mouse chimeric sites, ends assumed
Relative to: input RNA pool
Reading: higher = stronger binding
Shared flanks, not repeated: GGGAGUUCUACAGUCCGACGAUC … CAACAGAGGAUUGAGCAUCA
Residues (chain): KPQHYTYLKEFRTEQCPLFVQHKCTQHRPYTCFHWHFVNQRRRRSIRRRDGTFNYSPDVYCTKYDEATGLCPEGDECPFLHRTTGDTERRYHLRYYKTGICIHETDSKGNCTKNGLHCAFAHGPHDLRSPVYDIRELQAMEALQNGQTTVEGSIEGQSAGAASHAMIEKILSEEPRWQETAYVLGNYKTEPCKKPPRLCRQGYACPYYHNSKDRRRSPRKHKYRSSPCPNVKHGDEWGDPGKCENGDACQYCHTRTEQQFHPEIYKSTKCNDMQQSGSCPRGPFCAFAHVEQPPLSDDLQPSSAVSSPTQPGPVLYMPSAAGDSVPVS
Oligonucleotide | bound/input enrichment
UACUACUAUGAUGGUGAUAUUGGAAAUUAUUAUUAUGGCCAGGGUCAUCCCAUGAAGCCUCAUAGAAUCCGCAUGACUCAUAACUUGCUGCUAAAUUAUGGUUUAUACCGAAAAAUGGAA | 0.173 ratio
GAGUCGAGCAAACUUGAAACAAUUCGUUAUCUUGCAGCCUCAGUGUUCACUUGCUUGGCGAUAGCAUAUUGGGAUUUUAGGUUCUGGGGAAGUAGUAGACGAUGAUGCUGCCGCUGCUGC | 3.64 ratio
ACCAUUUUCGCGGUUCAAGGUUUUGUGGUAGUUCACUUACGGUAUUAAAUUAUUAUUCUGCUUAGCUUAAAGUAAGGAUAAUUGCAUUUAAAGAGGUUACUGAAUGUUACUCUGAAACUU | 0.188 ratio
GUGACUGGUGUUAAGAUUUCCCCUCAGCAAAGAAGUGCAGUAGUCACAAUAAUCCCUUCUGUGGUGAGUGCCAGUCAGAUUGUGGAGCUGGUCCCAGAACUCAGUUUAGACAUGGGAACU | 0.293 ratio
CACAGAGCAGCACCUACCCCCUCCUCCUUUCCACACCUGCAAACCCUUUUACUUGGGCUGCAUAGUUAGUGUAAUUACAUCUCAGCUUUGAGGGCUCCUGUGGCAAAUUCCCGGAUUAAA | 5.24 ratio
CAGCCUCAGAGCCCAGACUUCCUGGAUAUCACCAACCCUAAAGCGGUAUUAGAAAAUGCACUUAGGAACUUCGCCUGUCUGACGACUGGAGAUGUGAUUGCUAUCAACUACAAUGAGAAG | 0.429 ratio
AAAUCGUGUGUGUCAAAUAUUGAAAGUACUUUAUCUGCACUCCAGUAUGUAAGCAGUAUAGUAGUUUCUUUAGAGAAUAGGUCAGCCAUUGUAAAGUACAAUGCAAGCUUAGUCACUCCA | 2.77 ratio
UUGAAAACUGAUUCAAGUAAGUUUGAGUAUCACAAUGUUAGCUUUCUAAUUCCAUAAAAGUACUUGGUACAGUUUCUUUAUAAUCUGCAAUCCAUCAAGCGCCAUUUGUAAAGAGCAACU | 0.491 ratio
GUAUACGGUUAUCGAGGAAAGGACUGUAGAGCUAAUGUAUACCUGCUUCCCACAGGGGAGAUAGUUUAUUUCAUUGCCUCAGUGGUAGUCCUGUUUAAUUAUGAGGAGAGGACUCAGCGA | 0.712 ratio
AGAGAAAUGAGAAAGAAUCUCACACAAGAAGAGAUGCAAAGAAUGUCUACUAGAGUCCUUUUAGCCACUCUUUCCAUUCCUAUUACUCCUGAGCGAACUGAUAUUGCUCGACUUUUGGAU | 0.081 ratio
CCCUCCCCGGGCCACCCACCCCUCCCGGCUCCCCGCCAGAGCAAGGUUUUCUUCUUAUUUCAUAGCAAAUAAGAAAAAUGUUCUACGCACAUUUUGUUCUCAGUAAACGAGGGCCUCUGG | 0.68 ratio

A few entries again (set 2):
Oligonucleotide | fluorescence intensity [a.u.]
CTTCTGTAAATTTGAAGTGTGGGTGGACGCGCCCCG | 82.6
ATCTTTGAGTGTCGGCACGTGTTGGGTTACGAATTC | 1840
TTTGGCGCAAATTACCATGTGAGCGAGCGGGAATAA | 210
AAAAAAGACGTAAAGCACGTGAAATAAGGAGATTAC | 1000
CCAGTTGGTTAAGGCACCGTGCTAATATCGCGGGGA | 58.1
CTTTCCCGATCTTTTCACGTGCAGTTAGCACATTTG | 855
ATGAATGCGGACCATCACCTGCAACAGCAGCAGCAA | 79.1
CGTCTCGAGCATGAGCGTGTGCAACAGTTGCAACAA | 89.9
AAATTACTAAGTTGTTGTGTGGGTGACGCCGTATGA | 78.1
